Assay results collected from several papers.
Each line is one published result; not all experiments were run side by side. “And” joins repeats or separate records; there may be more than shown.
Target: Casein kinase II subunit alpha (CSNK2A1, Homo sapiens, UniProt P68400)

The remaining activity of `COc1ccc(NC(=O)Nc2ccc3c(c2)C(=O)N(C(C)CO)CC(C)C(CN(C)Cc2ccc4c(c2)OCO4)O3)cc1` (stereo not shown) is reported as 101% (kinase activity, KinaseProfiler; 0.03 µM, species human; reference: control).
For `CC(C)=CC1OC(C)(C)C2C=C3C(=O)C(Cl)=CC(O)C3C3C(O)C4OC4C(=O)C132` (stereo not shown), the remaining binding was 73% (cell-free assay, competition with immobilised ligand; 10 µM).
For `Nc1ncc(-c2cc(-c3cnn(CC(F)(F)F)c3)ncc2F)nc1C(=O)NC1CNCC(F)C1` (stereo not shown), the remaining activity was 101% (enzyme activity; 1 µM; reference: DMSO control).
The remaining binding of `C=CC(=O)N1CCc2ccc(-n3c(=O)ccc4cnc5ccc(-c6cnn(C)c6)cc5c43)cc21` is reported as 44% (KINOMEscan; 1 µM; reference: DMSO control).
With `CN1CCN(Cc2ccc(-c3ccc(CO[C@H]4CCC[C@@H]4NC(=O)c4cc(-c5cnn(C)c5)cnc4N)cc3)cc2)CC1` the inhibition was 12% (enzyme activity, inhibitor; 0.1 µM).
`O=c1c(-c2ccc(Cl)c(CN3CCOCC3)c2)coc2cc(O)ccc12` gave a remaining activity of 112% (enzyme activity, inhibitor; 1 µM).
The inhibition of `CN1CC[C@@H](COc2cnc(C#N)cc2-c2ccn3nc(NC(=O)C4CC4)cc3c2)C1` is reported as 25% (kinase activity; 1 µM, ATP15).
`O=C=[N][Ru-4]123([n]4c5ccc(O)cc5c5c6c(c7cc(F)c[n+]1c7c54)C(=O)NC6=O)[S+]1CC[S+]2CC[S+]3CC1` (stereo not shown) has a remaining activity of 113% (enzyme activity; 100 nM, human enzyme, together with: 10 µM ATP; reference: untreated).
With `Cc1cccc(-c2ccc3nc(NC(=O)C4CCOCC4)nn3c2)c1` the remaining activity was 106% (enzyme activity, Dundee kinase panel; 10 µM).
With `NC(=O)C[C@H]1CCc2sc3ncnc(O[C@H]4CC[C@H](N5CCOCC5)CC4)c3c21` the inhibition was 6% (enzyme activity, inhibitor; 10 µM).
For `Nc1ncc2c(n1)-c1c([nH]c3ccc(C4=CCOCC4)cc13)CCC2`, the remaining binding was 71% (binding, competition with immobilised ligand; 1 µM).
The inhibition of `CS(=O)(=O)Nc1cccc(-c2csc3cnc(Nc4ccc(N5CCN(CCCCCOc6cccc7c6C(=O)N(C6CCC(=O)NC6=O)C7=O)CC5)cc4)nc23)c1` (stereo not shown) is reported as -9.53% (kinase probe labelling, binder, KiNativ ATP-acylphosphate LC-MS; MOLT-4 live cells; 1 µM).
With `COCC12C(=O)NC3C4(C(OC)CC1O)C1CC5(O)C(OC)C(O)C(OC(C)=O)(C1C5OC(=O)c1ccccc1)C3(O)C(OC)C24` (stereo not shown) the remaining activity was 104% and 100% (kinase activity, inhibitor, ProQinase kinase profiling; 25 µM; reference: control).
`COc1cc(-n2cc3cc(F)cc(C(N)=O)c3n2)cc(Cl)c1C1CC(O)(CCO)Cc2ccccc21` (stereo not shown) gave an inhibition of 0.79% (enzyme activity, inhibitor; 10 µM).
`Cc1ccc(C)c(-c2ccc3nc(NC(=O)C4CCCCC4)nn3c2)c1` gave a remaining activity of 104% (enzyme activity, Dundee kinase panel; 10 µM).
With `C=CC(=O)N1Cc2nc(-c3cc(-c4cc(Cl)cnc4Cl)c(F)cc3F)n(-c3ccncn3)c2C1` the inhibition was 5.7% (cell-free assay, inhibitor; 1 µM).

A few entries again:
For `Nc1ncc2c(n1)-c1c([nH]c3ccc(C4=CCOCC4)cc13)CCC2`, the remaining binding was 71% (binding, competition with immobilised ligand; 1 µM).
With `CN1CCN(Cc2ccc(-c3ccc(CO[C@H]4CCC[C@@H]4NC(=O)c4cc(-c5cnn(C)c5)cnc4N)cc3)cc2)CC1` the inhibition was 12% (enzyme activity, inhibitor; 0.1 µM).
